Results pooled from the literature.
Each line is one published result; not all experiments were run side by side. Numbers after ± are the reported error.
ALDH1A1: Aldehyde dehydrogenase 1A1 (ALDH1A1, Homo sapiens, UniProt P00352)
NMBR: Neuromedin-B receptor (NMBR, Homo sapiens, UniProt P28336)
PDE3A: cGMP-inhibited 3',5'-cyclic phosphodiesterase 3A (PDE3A, Homo sapiens, UniProt Q14432)
KDR: Vascular endothelial growth factor receptor 2 (KDR, Homo sapiens, UniProt P35968)
SCTR: Secretin receptor (SCTR, Homo sapiens, UniProt P47872)

With `[64Cu+2].c1ccc(CNCc2ccc(CN3CCCN4CCNCCCN(CC4)CC3)cc2)nc1` the tissue uptake was 2.12 ± 0.18 %ID/g (CXCR4; NOD/SCID mouse, U87 and U87-stb-CXCR4 xenografts, heart; iv, 60 min, ex vivo).
For `Nc1nc(Cl)nc2c1ncn2Cc1cc(OCC(F)F)cc(OC(F)F)c1`, the IC50 was 6.18 µM (Dual specificity calcium/calmodulin-dependent 3',5'-cyclic nucleotide phosphodiesterase 1C (PDE1C, Homo sapiens, UniProt Q14123); enzyme activity, inhibitor).
`CCOC(=O)N1CCN(Cc2nc3c(c(=O)n(C)c(=O)n3C)n2CCC(C)C)CC1` has an IC50 of 0.17 µM (ALDH1A1; enzyme activity, inhibitor).
For `CC(C)C[C@H]1CN[C@H](C(N)=O)CSSC[C@@H](N)C(=O)N[C@@H](CCC(N)=O)C(=O)N[C@@H](Cc2c[nH]c3ccccc23)C(=O)N[C@@H](C)C(=O)N[C@@H](C(C)C)C(=O)N[C@H](C)C(=O)N[C@@H](Cc2c[nH]cn2)C(=O)N1`, the IC50 was over 10 µM (NMBR; inositol phosphate generation, antagonist; NCI-H1299; with: neuromedin B).
`CN(CC(=O)c1ccc2[nH]c(=O)[nH]c2c1)Cc1ccco1` has an IC50 of over 1000 µM (DNA dC->dU-editing enzyme APOBEC-3A (Homo sapiens, UniProt P31941); deaminase activity, inhibitor, alkaline cleavage; 293T lysate, untagged).
The IC50 of `CCCCC/C=C/C(=O)CCc1ccc(O)c(OC)c1` is reported as 0.0196 µg/mL (mAb 4-AT4; antibody binding, indirect competitive ELISA; with: coating antigen hapten 5-OVA).
`O=c1[nH]c(=O)c2ncn(CCOCP(=O)(O)OP(=O)(O)OP(=O)(O)O)c2[nH]1` gave an IC50 of over 100 µM (DNA polymerase beta (POLB, Homo sapiens, UniProt P06746); DNA polymerase activity, inhibitor; with: [3H]dTTP, calf thymus DNA).
For `OC[C@H]1[C@@H](O)[C@@H](O)CN1CCc1ccccc1`, the IC50 was 1200 µM (Lysosomal alpha-mannosidase (Drosophila melanogaster, UniProt Q9VKV1); pH 5.2, with: 2 mM pNP-Man).
With `COc1cc2nccc(Oc3ccc(NC(=S)NCc4ccccn4)c(Cl)c3)c2cc1C(N)=O` the IC50 was 0.0733 µM (Platelet-derived growth factor receptor beta (PDGFRB, Homo sapiens, UniProt P09619)).
`O=C(Nc1ccc(-c2nc3ncccc3o2)cc1)c1ccccc1Br` gave an IC50 of 0.0224 ± 0.0118 µM (Nucleoside transporter 1 (Plasmodium vivax, UniProt A5K8B0); [3H]adenosine uptake; target-expressing yeast).
`CC(C)C[C@@H](CC(=O)N[C@@H](Cc1ccsc1)C(N)=O)NC(=O)[C@H](CCCNC(=N)N)NC(=O)c1ccc(CC2CCNCC2)cc1` has an IC50 of over 30 µM (Cyclin-A2, with CDK2 (CCNA2, Homo sapiens, UniProt P20248); binding to cyclin groove, inhibitor, fluorescence polarization competition).
`Cc1cc(=O)[nH]c2ccc(OCCCC(=O)N3CCCCC3)cc12` has an IC50 of 0.5 µM (PDE3A; enzyme activity, inhibitor, FP).
For `NS(=O)(=O)Nc1ncnc(OCCOc2ncc(Br)cn2)c1-c1ccc(Br)cc1`, the Vmax was 1730 ± 67 pmol/min/mg (metabolite formation; female Beagle dog, liver microsomes; 50 mg/kg daily for 4 weeks).
For `COc1cc2nccc(Oc3ccc(NC(=S)NC4CC4)c(Cl)c3)c2cc1C(=O)NCC(F)(F)F`, the IC50 was 0.0795 µM (KDR).
`CCCN(Cc1ccc(F)cc1)c1nc(C#N)nc(N2CCOCC2)n1` gave an IC50 of 0.067 µM (Procathepsin L (CTSL, Homo sapiens, UniProt P07711); enzyme activity, inhibitor, fluorescence).
For `O=Cc1c(O)ccc2ccccc12`, “log2 fold change” read 3.21 (HUVEC; RNA sequencing, measured: DDIT4; 75 µM, 24 h; reference: DMSO).
`COc1cc2nccc(Oc3ccc(NC(=S)NC4CC4)c(C(F)(F)F)c3)c2cc1C(N)=O` gave an IC50 of 0.0162 µM (KDR).
`CC1CC(=O)N(CCCCCCN)N=C1c1ccc(NC(=O)N2Cc3ccncc3C2)cc1` (centres unmarked) has an IC50 of 0.0007 µM (Nicotinamide phosphoribosyltransferase (NAMPT, Homo sapiens, UniProt P43490); enzyme activity, inhibitor).
`O=S(=O)(Nc1cc(F)c(Oc2ncccc2-c2ccnc(N[C@H]3CCCNC3)n2)cc1Cl)c1ccccc1Cl` has an IC50 of 0.43 ± 0.07 µM (Serine/threonine-protein kinase/endoribonuclease IRE2, RNase domain (ERN2, Homo sapiens, UniProt Q76MJ5); RNase activity, inhibitor; with: XBP1 mini-substrate).
With `CCn1c(C)c(Sc2ccc(C)cc2)c(=O)n1-c1ccccc1Cl` the IC50 was 0.0189 µM (Tyrosine-protein kinase JAK3 (JAK3, Homo sapiens, UniProt P52333); enzyme activity, inhibitor, ADP detection).
The IC50 of `CC(C)CCC[C@@H](C)[C@H]1CC[C@H]2[C@@H]3CC=C4C[C@@H](OS(=O)(=O)O)CC[C@]4(C)[C@H]3CC[C@]12C` is reported as 141 ± 21.8 µM (Prothrombin (F2, Homo sapiens, UniProt P00734); enzyme activity, inhibitor; with: unfractionated heparin 0 µM).
The IC50 of `O=C1O[C@H]([C@@H](O)c2ccc(O)cc2)c2cccc(O)c21` is reported as over 100 µM (Alpha-glucosidase MAL12 (MAL12, Saccharomyces cerevisiae S288c, UniProt P53341); enzyme activity, inhibitor, absorbance).
For `COc1cc(CCC(C)=O)ccc1O`, the IC50 was over 4 µg/mL (mAb 4-AT4; antibody binding, indirect competitive ELISA; with: coating antigen hapten 1-OVA).
With `CSCC[C@H](NC(=O)[C@H](CC(C)C)NC(=O)[C@H](Cc1c[nH]cn1)NC(=O)[C@@H](C)NC(=O)[C@@H](NC(=O)[C@H](C)NC(=O)[C@H](Cc1c[nH]c2ccccc12)NC(=O)[C@H](CCC(N)=O)NC(=O)[C@H](CC(N)=O)NC(=O)CNC(=O)[C@H](CC(C)C)NC(=O)[C@H](CCCNC(=N)N)NC(=O)[C@H](CCC(N)=O)NC(=O)[C@@H]1CCC(=O)N1)C(C)C)C(N)=O` the IC50 was 0.045 to 0.295 µM (NMBR; NMBR activity, cell-based).
With `CC(C)CCC[C@@H](C)[C@H]1CCC([C@@H]2CC[C@H]3C[C@@H](O)CC[C@]3(C)[C@H]2O)[C@]1(C)CC(=O)O` (some centres unmarked) the IC50 was 3.4 µM (Bile acid receptor (NR1H4, Homo sapiens, UniProt Q96RI1); transactivation, antagonist, SHP promoter luciferase reporter; HEK293T; with: GW4064 10 µM).
`COCCCN1CCc2c(Cc3ccc(Cl)cc3)[nH]c3c(OC(F)F)ccc(c23)C1=O` gave an IC50 of over 10 µM (PDE3A; enzyme activity, inhibitor).
`C=C(C)C1CCc2c(c(C)cc(O)c(=O)c2O)C1` (centres unmarked) gave an IC50 of 3.5 µM (Ribonuclease H1 (Homo sapiens, UniProt O60930); enzyme activity, inhibitor, fluorescence).
`CC(=O)Nc1ccc(C(=O)Nc2cc(-c3cccs3)ccc2N)cc1` has an IC50 of over 30 µM (Polyamine deacetylase HDAC10 (HDAC10, Homo sapiens, UniProt Q969S8); deacetylase activity, inhibitor, recombinant enzyme).
`COc1c(C[C@@H](C)O)c2c3c(C[C@@H](C)O)c(OC)c(=O)c4c(O)cc(OC(C)C)c(c5c(OC(C)C)cc(O)c(c1=O)c52)c43` has an IC50 of 0.8 µM (protein kinase C; enzyme activity, inhibitor; whole enzyme).
`COc1ccc(-c2cc(C(F)(F)F)nc(S(=O)(=O)CCC(=O)Nc3ccc(C)cc3)n2)cc1` gave an IC50 of 2.7 µM (Bifunctional 3'-5' exonuclease/ATP-dependent helicase WRN (WRN, Homo sapiens, UniProt Q14191); ATPase activity, inhibitor, ADP detection).
With `COc1ccc(CNc2nc(-c3ccc(OC)c(OC)c3)cc(C(F)(F)F)n2)cc1` the EC50 was 42 µM (SCTR; cAMP, agonist).
`CC(/C=C/c1ccc(OCC(=O)Nc2ccc(F)cc2)cc1)=N/O` has an IC50 of 10.9 µM (Peroxisome proliferator-activated receptor gamma (PPARG, Homo sapiens, UniProt P37231); ligand displacement, TR-FRET).
`CC(C)C[C@@H]1NC(=O)[C@H]([C@@H](C)O)NC(=O)[C@H](Cc2ccccc2)NC(=O)CNC(=O)[C@H](Cc2c[nH]c3ccccc23)NC(=O)[C@H](Cc2c[nH]cn2)NC(=O)[C@H](C)NC(=O)[C@H]([C@@H](C)O)NC(=O)[C@H](C)NC(=O)C[C@@H](C(N)=O)NC1=O` has an IC50 of 9.28 µM (72 kDa type IV collagenase (MMP2, Homo sapiens, UniProt P08253); inhibitor; 1 h preincubation, 37 °C, with: APMA-activated enzyme).
`O=C1c2oc3cc(O)c(O)cc3c2C(=O)c2oc3cc(O)c(O)cc3c21` gave an IC50 of 8.5 µM (Cytochrome P450 2B6 (CYP2B6, Homo sapiens, UniProt P20813); enzyme activity, inhibitor; human, liver microsomes; 1 h, pH 7.4).
For `CC(C)CCCn1c(OC2CCN(C(=O)C3CC3)CC2)nc2c1c(=O)n(C)c(=O)n2C`, the IC50 was 0.081 ± 0.011 µM (ALDH1A1).
For `CCCCCCCCC/C=C/C=C/C(=O)N[C@H](C(=O)N[C@H]1C[C@@H](O)CCNC(=O)/C=C/[C@H](C)NC1=O)[C@@H](C)O`, the IC50 was 0.0027 µM (Proteasome subunit beta type-5 (Psmb5, Mus musculus, UniProt O55234); chymotrypsin-like activity, inhibitor; mouse constitutive proteasome; with: Suc-LLVY-AMC).
The IC50 of `CC(=O)NCC(=O)N[C@@H](CC(=O)O)C(=O)N[C@@H](Cc1ccc(O)cc1)C(=O)N[C@@H](CO)C(=O)N[C@@H](Cc1cnc[nH]1)C(=O)N[C@H]1CSSC[C@@H](C(=O)N[C@H](C(=O)N[C@@H](Cc2ccc(O)cc2)C(=O)N2CCC[C@H]2C(=O)N[C@@H](CC(=O)O)C(=O)N2CCC[C@H]2C(=O)N[C@@H](CCC(=O)O)C(=O)NCC(=O)NCC(=O)NCC(N)=O)[C@@H](C)O)NC(=O)[C@H](CCCCN)NC(=O)[C@H](Cc2c[nH]c3ccccc23)NC(=O)[C@H](Cc2c[nH]c3ccccc23)NC(=O)[C@@H]2CCCN2C(=O)[C@H](Cc2ccc(O)cc2)NC(=O)[C@H](Cc2ccc(O)cc2)NC(=O)[C@H](CCCNC(=N)N)NC(=O)[C@H](CC(C)C)NC(=O)[C@@H]2CCCN2C(=O)[C@H](CO)NC1=O` is reported as 3.98 µM (Angiotensin-converting enzyme (Mus musculus, UniProt P09470); inhibitor).
The IC50 of `COc1cc2nccc(Oc3ccc4sc(Nc5ccc(Cl)c(F)c5)nc4c3)c2cc1C(N)=O` is reported as 4.8 µM (KDR).
With `CC1(C)C2CC3C(c4ccccc4)c4c(O)c(C=O)c(O)c(C=O)c4OC3(C)C1C2` (single isomer, unassigned; (+)) the IC50 was over 100 µM (ATP-dependent 6-phosphofructokinase, liver type (PFKL, Homo sapiens, UniProt P17858, K315R/K677R/K681R); enzyme activity, inhibitor, coupled enzyme; triple mutant).
The IC50 of `COc1cc2nccc(Oc3ccc(N4C(=O)CNC4=S)c(Cl)c3)c2cc1C(N)=O` is reported as 0.0681 µM (KDR).
With `COc1ccc(-c2cc(C(F)(F)F)nc(S(=O)(=O)CCCC(=O)Nc3ccc(F)c(Cl)c3)n2)cc1OC` the EC50 was 26 µM (SCTR; cAMP, agonist).

A few entries again:
`O=c1[nH]c(=O)c2ncn(CCOCP(=O)(O)OP(=O)(O)OP(=O)(O)O)c2[nH]1` gave an IC50 of over 100 µM (DNA polymerase beta (POLB, Homo sapiens, UniProt P06746); DNA polymerase activity, inhibitor; with: [3H]dTTP, calf thymus DNA).
`CN(CC(=O)c1ccc2[nH]c(=O)[nH]c2c1)Cc1ccco1` has an IC50 of over 1000 µM (DNA dC->dU-editing enzyme APOBEC-3A (Homo sapiens, UniProt P31941); deaminase activity, inhibitor, alkaline cleavage; 293T lysate, untagged).
The IC50 of `CC(=O)NCC(=O)N[C@@H](CC(=O)O)C(=O)N[C@@H](Cc1ccc(O)cc1)C(=O)N[C@@H](CO)C(=O)N[C@@H](Cc1cnc[nH]1)C(=O)N[C@H]1CSSC[C@@H](C(=O)N[C@H](C(=O)N[C@@H](Cc2ccc(O)cc2)C(=O)N2CCC[C@H]2C(=O)N[C@@H](CC(=O)O)C(=O)N2CCC[C@H]2C(=O)N[C@@H](CCC(=O)O)C(=O)NCC(=O)NCC(=O)NCC(N)=O)[C@@H](C)O)NC(=O)[C@H](CCCCN)NC(=O)[C@H](Cc2c[nH]c3ccccc23)NC(=O)[C@H](Cc2c[nH]c3ccccc23)NC(=O)[C@@H]2CCCN2C(=O)[C@H](Cc2ccc(O)cc2)NC(=O)[C@H](Cc2ccc(O)cc2)NC(=O)[C@H](CCCNC(=N)N)NC(=O)[C@H](CC(C)C)NC(=O)[C@@H]2CCCN2C(=O)[C@H](CO)NC1=O` is reported as 3.98 µM (Angiotensin-converting enzyme (Mus musculus, UniProt P09470); inhibitor).
With `CSCC[C@H](NC(=O)[C@H](CC(C)C)NC(=O)[C@H](Cc1c[nH]cn1)NC(=O)[C@@H](C)NC(=O)[C@@H](NC(=O)[C@H](C)NC(=O)[C@H](Cc1c[nH]c2ccccc12)NC(=O)[C@H](CCC(N)=O)NC(=O)[C@H](CC(N)=O)NC(=O)CNC(=O)[C@H](CC(C)C)NC(=O)[C@H](CCCNC(=N)N)NC(=O)[C@H](CCC(N)=O)NC(=O)[C@@H]1CCC(=O)N1)C(C)C)C(N)=O` the IC50 was 0.045 to 0.295 µM (NMBR; NMBR activity, cell-based).
With `COc1ccc(-c2cc(C(F)(F)F)nc(S(=O)(=O)CCCC(=O)Nc3ccc(F)c(Cl)c3)n2)cc1OC` the EC50 was 26 µM (SCTR; cAMP, agonist).
